Results collected from several papers.
A part holds a random share of what one study measured.

Sample 1 — cell line: HEK-293T; read-out: pseudovirus infection; method: FDA-approved drug library screen; organism: VSV pseudotyped with SARS-CoV-2 spike; tested at: 10 µM; time: 16 h; baseline: vehicle-treated
SMILES | GFP-positive cells [%]
NS(=O)(=O)c1cc2c(cc1Cl)N=CNS2(=O)=O | 105
CO/N=C(\C(=O)N[C@@H]1C(=O)N2C(C(=O)OCOC(=O)C(C)(C)C)=C(/C=C\c3scnc3C)CS[C@H]12)c1csc(N)n1 | 94
CC(CN(C)C)CN1c2ccccc2CCc2ccccc21 (stereo not drawn) | 23.2

Sample 2 — read-out: enzyme activity; tested at: 20 µM; setting: with DTT
Target: Replicase polyprotein 1ab, main protease (rep, Severe acute respiratory syndrome coronavirus 2, UniProt P0DTD1)
Compound | inhibition [%]
CN(C)S(=O)(=O)c1cccc(-n2sc3ccccc3c2=O)c1 | 99.8
Cc1cc(-c2ccc(/C=C3/SC(Nc4ccc(Cl)c(C(=O)O)c4)=NC3=O)o2)c([N+](=O)[O-])cc1C | 73.3
Cc1ccccc1N(C)C(=O)c1ccc([S+]([O-])c2nccs2)c([N+](=O)[O-])c1 (stereo not drawn) | 73.8

Sample 3 — read-out: enzyme activity; mode: inhibitor; tested at: 20 µM
Target: Replicase polyprotein 1ab, polymerase (rep, Severe acute respiratory syndrome coronavirus 2, UniProt P0DTD1)
SMILES | inhibition
NC(=O)c1nnn(Cc2cc(Cl)c(C(=O)c3ccc(Cl)cc3)c(Cl)c2)c1N | -2.17%
Cc1ccc(NC(=O)Nc2cc(C(F)(F)F)ccc2F)cc1Nc1ccc2c(c1)NC(=O)/C2=C\c1ccc[nH]1 | -14.9%
CCN1CCC[C@H]1CNC(=O)c1c(O)c(Cl)cc(Cl)c1OC | -0.41%
CN(C)c1ccc(-c2nc3ncc(Cl)c(N4CCN(CC(=O)Nc5nccs5)CC4)c3[nH]2)cc1 | -3.29%
OC[C@H]1O[C@@H](Oc2cc3c(O)cc(O)cc3[o+]c2-c2ccc(O)c(O)c2)[C@H](O)[C@@H](O)[C@@H]1O | 58.6%
C=C1CC[C@H](O)C/C1=C/C=C1\CCC[C@]2(C)[C@@H]([C@H](C)CCCC(C)C)CC[C@@H]12 | 14.7%
COc1ccc(-c2cc(=O)c3c(OC)c(OC)c(OC)c(OC)c3o2)cc1 | -1.92%
CCO[C@H]1O[C@@H]2O[C@@]3(C)CC[C@H]4[C@H](C)CC[C@@H]([C@H]1C)[C@@]24OO3 | -3.42%
COc1cc(C(=S)N2CCOCC2)cc(OC)c1OC | 6.39%
COc1cc(N)c(Cl)cc1C(=O)OCCCN1CCCCC1 | 2.43%
O=C(O)C(Cc1ccccc1[N+](=O)[O-])=NNc1nc(-c2ccc(Cl)c(Cl)c2)cs1 (mixture of isomers) | 18.7%
C=CC(=O)Nc1cccc(Nc2nc(Nc3ccc(OCCOC)cc3)ncc2F)c1 | 1.49%
COc1cc2c(cc1OC)CC(=O)N(CCCN(C)C[C@H]1Cc3cc(OC)c(OC)cc31)CC2 | -4.86%
C[C@H](NC(=O)CNC(=O)c1cccc(Cl)c1)c1ccccc1 | 3.04%
Cc1cccc(C)c1-n1c(=O)c2cnc(Nc3ccc(N4CCN(C)CC4)cc3)nc2n2c3ccccc3nc12 | 6.7%
O=C(O)C1=CCCNC1 | -4.4%
CCC[C@@H]1C[C@@H](C(=O)N[C@@H]([C@H]2O[C@H](SC)[C@H](O)[C@@H](O)[C@H]2O)[C@@H](C)O)N(C)C1 | 18.7%
CC(C)CN(C[C@@H](O)[C@H](Cc1ccccc1)N(C(=O)CNCc1cccc(F)c1)[C@H](C(N)=O)C(C)(C)C)S(=O)(=O)c1cccc(N)c1 | -3.35%
N=c1ccn2c(n1)O[C@H]1[C@H](O)[C@@H](CO)O[C@H]12 | -2.54%
CCn1cc(C(=O)O)c(=O)c2cc(F)c(N3CCNC(C)C3)c(F)c21 (stereo not drawn) | 13.6%
Cc1ncc(C[n+]2csc(CCO)c2C)c(N)n1 | -1.78%
O=c1[nH]c2cc(C(F)(F)F)c(N3CCOCC3)cc2n(CP(=O)(O)O)c1=O | 3.03%
CO/N=C(\C(=O)N[C@@H]1C(=O)N2C(C(=O)O)=C(CSc3nc(C)c(CC(=O)O)s3)CS[C@H]12)c1csc(N)n1 | 15.8%
CN1CCC(=C2c3ccccc3CCc3sccc32)CC1 | -7.49%
CC(=O)NNC(=O)N1Cc2ccccc2Oc2ccc(Cl)cc21 | -8.2%

Sample 4 — method: protein-binding microarray; molecule type: double-stranded DNA, one strand shown; medium: in vitro; tested at: not given; reading: higher = stronger binding
Target: Max dimerization protein 1, bHLH-zipper, MAX partner unstated (MXD1, Homo sapiens, UniProt Q05195, residues 56-136)
Setting: k-mer, scored over probes, only values ≥0.25
Target sequence (chain): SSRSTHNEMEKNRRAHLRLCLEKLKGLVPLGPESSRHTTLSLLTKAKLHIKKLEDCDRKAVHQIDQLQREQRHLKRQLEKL
Strand | E-score
CAACGTGC | 0.453
CCACGTCC | 0.265
GCATGAGC | 0.298
CCAACACG | 0.301
CATGTCCA | 0.376
AAGAAGGG | 0.263
ACGTGACG | 0.321

Sample 5 — method: protein-binding microarray; molecule type: double-stranded DNA, one strand shown; medium: in vitro; tested at: 2200 nM top; setting: 60-bp whole probe; together with: salmon DNA 0.4 mg/ml; baseline: random background probes; reading: higher = stronger binding; shared flanks, not repeated: GCCTAGCAC … GTCTTGATTCGCTTGACGCTGCTG
Target: Interferon regulatory factor 7, full length, phosphomimetic (IRF7, Homo sapiens, UniProt Q92985, residues 1-503, S471D/S472D/S475D/S476D/S477D/S483D/S484D/S487D)
UniProt Q92985, sequence (whole entry, unmodified, looked up): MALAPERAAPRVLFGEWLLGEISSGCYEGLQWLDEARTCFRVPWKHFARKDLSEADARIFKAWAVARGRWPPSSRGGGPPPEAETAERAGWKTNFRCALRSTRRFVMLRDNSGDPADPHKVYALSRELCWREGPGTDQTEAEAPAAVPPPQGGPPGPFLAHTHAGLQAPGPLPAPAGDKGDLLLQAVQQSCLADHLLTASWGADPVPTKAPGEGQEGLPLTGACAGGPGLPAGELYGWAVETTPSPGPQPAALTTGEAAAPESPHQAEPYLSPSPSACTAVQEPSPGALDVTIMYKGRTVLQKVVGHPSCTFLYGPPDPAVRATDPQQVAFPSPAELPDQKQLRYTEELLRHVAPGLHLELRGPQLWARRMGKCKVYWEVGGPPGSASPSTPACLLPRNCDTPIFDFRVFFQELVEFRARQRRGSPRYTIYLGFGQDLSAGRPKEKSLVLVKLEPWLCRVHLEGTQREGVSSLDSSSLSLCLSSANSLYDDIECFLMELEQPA
Strand | fitted relative affinity [z-score]
GACAGTCTCGGACTGGGGACGTGCTAG | -0.469
GACGGTCTCGGACTGGGGACGTGCTAG | -0.386
TTAGGTTTCGGGTTTCGGTAAGTGCTA | 9.19
CGAGTTTCCATTTTCTGAATGTGCTAG | 6.06
GACGGTTTCGACTTTCGGGAGGTGCTA | 7.87
GACGGTCTCCTTCTCCGGACGTGCTAG | 0.592
CAAGTTTTTATTTTCTGAATGTGCTAG | 3.02
TTAGGTTTACTTCTCCTTTAGTGCTAG | 1.43

Sample 6 — method: RNA Bind-n-Seq; molecule type: RNA; medium: in vitro; tested at: 200 nM; setting: whole 134-nt RNA, ends assumed; together with: 150 mM LiCl; baseline: input library; reading: higher = stronger binding; library: 7-deaza-guanosine replaces G
Target: Fragile X messenger ribonucleoprotein 1, C-terminal low-complexity region (Fmr1, Mus musculus, UniProt P35922)
Shared flanks, not repeated: GGGAGUUCUACAGUCCGACGAUC … UGGAAUUCUCGGGUGUCAAGG
Strand | log2 enrichment
AGUCCUGUGCUACACAUCGUAUGUACCGAAUCGGGGAAAAGGGGAAAAGGAAAAGGGAAAGUAUUAUGUUACGCCGUUCGGAUCUGCACU | -0.724
UGGGCGGUGGAUUUUGUUUAUUUUUUUAGCUCAUUUCCAGGGGUGGGAAUUUUUUUUUAAUAUGUGUCAUGAAUAAAGUUGUUUUUGAAA | 1.09
ACCAUGCAGCUGGGCAUCUUUGGGAAGUGGGGCAAGGGGGGGAUAGGGAGGGGGGUAACACUUUGGGAACAGGUGGUCCCAGGUCGUUUC | 1.53
AAGUCCUGUGCUACACAUCGUAUGUACCGAAUCGGCCCCCGGCCCCCGGCCCCCGGGAAAGUAUUAUGUUACGCCGUUCGGAUCUGCACU | 0.0244
CACAGACAACACGCACCCACACAGACACACAGGGAAGGGGUUGGGAUGGGGACAGGGUGCACAGCAGGGCGGGGUAGGACCCCAGCCCCU | 0.0973
UCCUGUGCUACACAUCGUAUGUACCGAAUCGGGCCCCCCCGGCCCCCCCGGCCCCCCCGGAAAGUAUUAUGUUACGCCGUUCGGAUCUGC | 1.35
UGCCAUAAGCGGCACCGGCACUGCCCGGUUGUCGUGUCCGAGGCCACCAUCGUGGGCGUCCGCAAGACCGGGCAGAUCUGGCCCAACGAU | -1.92
ACCAUGCAGGUGGGCAUCUUUGGGAAGUGGGGCAAGGGGGGGAUAGGGAGGGGGCUAACACUUUGGGAACAGGUGGUCCCAGGUCGUUUC | 1.27
